Assay results pooled from the literature.
Lines come from different studies, so protocols differ. ± gives the spread as reported.

CN1CCc2nc(C(=O)N[C@@H]3C[C@@H](C(=O)N(C)C)CC[C@@H]3NC(=O)C(=O)Nc3ccc(Cl)cn3)sc2C1 — Cmax (healthy humans ABCB1 rs1045642 CT, plasma; oral, 60 mg single dose): 268 ± 95.2 ng/mL
CC(C)NC[C@@H](C(=O)N1CCN(c2ncnc3c2[C@H](C)C[C@H]3O)CC1)c1ccc(Cl)cc1 — Cmax (human, severe hepatic impairment (Child-Pugh), plasma; oral, 100 mg single dose, geometric mean): 80 ng/mL
COc1cc(Nc2ncc3c(n2)-c2ccc(Cl)cc2C(c2c(F)cccc2OC)=NC3)ccc1C(=O)O — Cmax (human, plasma; oral, 40 mg twice daily, day 7, steady state geometric mean): 1830 nM
O=C(O)CNC(=O)c1c(O)c2ccccc2n(OCC2CC2)c1=O — Cmax (LC-MS/MS; human, blood; oral, 100 mg multiple doses): 1020 ± 414 ng/mL
C[C@@H](Oc1cc(-c2cnn(C3CCNCC3)c2)cnc1N)c1c(Cl)ccc(F)c1Cl — Cmax (healthy human, plasma; oral, 250 mg single fasted, arithmetic mean): 124 ± 39.2 ng/mL
CCc1nc(C(N)=O)c(Nc2ccc(N3CCC(N4CCN(C)CC4)CC3)c(OC)c2)nc1NC1CCOCC1 — Cmax (healthy humans, after high-fat breakfast, plasma; oral, 40 mg, single dose): 28.6 ng/mL
COC(=O)c1ccc2c(c1)NC(=O)/C2=C(\Nc1ccc(N(C)C(=O)CN2CCN(C)CC2)cc1)c1ccccc1 — Cmax (healthy human controls matched to Child-Pugh B, plasma; oral, 100 mg single dose, fed, adjusted geometric mean): 7.8 ng/mL
O=C(c1ccc(OCCN2CCCCC2)cc1)c1c(-c2ccc(O)cc2)sc2cc(O)ccc12 — Cmax (healthy humans, plasma; oral, 60 mg, added: chronic green tea): 0.14 nM
Cc1nc(-c2ccc(OCC(C)C)c(C#N)c2)sc1C(=O)O — Cmax (human, plasma; oral, 40 mg, added: verinurad 2.5 mg): 626 ng/mL
O=C(CCCCCCC(=O)Nc1ccccc1)NO — Cmax (human, serum; oral, 600 mg twice daily): 3430 nM
CC(C)(C)OC[C@@H]1C(=O)NCCN1C(=O)C[C@H](N)Cc1cc(F)c(F)cc1F — Cmax (human; 20 mg once daily, steady state, day 10): 31 ± 6.1 ng/mL
O=C(CCCCCCC(=O)Nc1ccccc1)NO — Cmax (human, serum; oral, 500 mg three times daily, 3 days, median, added: idarubicin): 1620 nM
CCCC[C@H](NC(C)=O)C(=O)N[C@H]1CCC(=O)NC[C@@H](C(=O)N[C@@H](Cc2c[nH]c3ccccc23)C(N)=O)NC(=O)[C@H](CCCNC(=N)N)NC(=O)[C@@H](Cc2ccccc2)NC(=O)[C@H](Cc2c[nH]cn2)NC1=O — Cmax (healthy human, both sexes, plasma; subcutaneous, 1.0 mg once daily, day 1, arithmetic mean): 23 ng/mL
CC(C)C[C@H](NC(=O)[C@H](CCc1ccccc1)NC(=O)CN1CCOCC1)C(=O)N[C@@H](Cc1ccccc1)C(=O)N[C@@H](CC(C)C)C(=O)[C@@]1(C)CO1 — Cmax (human patients, plasma; intravenous infusion 10 min, 27 mg/m^2, day 16 of cycle 1, KRd regimen): 2030 ± 282 ng/mL
CC#CC(=O)N1CC[C@@H](n2c(=O)n(-c3ccc(Oc4ccccc4)cc3)c3c(N)ncnc32)C1 — Cmax (human, plasma; oral, 300 mg twice daily, cycle 1 day 28, fasting): 961 ng/mL
Cc1ccc(NC(=O)c2ccc(CN3CCN(C)CC3)cc2)cc1Nc1nccc(-c2cncc(-c3oncc3C)c2)n1 — Cmax (older healthy human adults, plasma; oral, 75.0 mg single dose, fed, mean): 2750 ng/mL
O=C(NC[C@H](O)CO)c1ccncc1Nc1ccc(I)cc1F — Cmax (human; oral, 60 mg, single dose alone): 332 ng/mL
CN(C)CCCN1c2ccccc2Sc2ccc(Cl)cc21 — Cmax (human, plasma; oral, dose not given, clinical literature data): 400 nM
COc1cc(Nc2ncc3c(n2)-c2ccc(Cl)cc2C(c2c(F)cccc2OC)=NC3)ccc1C(=O)O — Cmax (human, plasma; oral, 50 mg single, fasted): 1580 nM
Cc1cc(-c2nnc(N)nc2-c2ccc(F)cc2)cc(Cl)n1 — Cmax (human patients, plasma; oral, 100 mg nanosuspension, single dose, arithmetic mean): 654 ng/mL
O=C(O)CCCCCCCNC(=O)c1ccccc1O — Cmax (human severe renal impairment, plasma; oral, dose not given, after tenth daily dose, geometric mean): 1070 nM
C#C[C@]1(CO)O[C@@H](n2cnc3c(N)nc(F)nc32)C[C@@H]1O — Cmax (human, plasma; oral, 30 mg once weekly, week 3): 637 nM
N[C@]1(C(=O)O)[C@H]2[C@@H](C[C@@H]1F)[C@@H]2C(=O)O — Cmax (human, fed, plasma; oral, 40 mg multiple, day 14): 124 ng/mL
CC(C)(Sc1ccncc1-c1ccc(C#N)c2ccccc12)C(=O)O — Cmax (human, male, plasma; oral, 2.5 mg once daily, day 14, added: febuxostat 80 mg once daily): 4.94 ng/mL
COc1ccc2nc([S@@+]([O-])Cc3ncc(C)c(OC)c3C)[nH]c2c1 — Cmax (human, CYP2C19 ultrarapid metabolizers, plasma; oral, 40 mg/day, day 5): 4090 ± 7090 ng/mL
CN1CCN(c2ccc3nc(-c4c(N)c5c(F)cccc5[nH]c4=O)[nH]c3c2)CC1 — Cmax (human, plasma; oral, day 29, normalised to 200 mg dose, added: erlotinib): 219 ± 112 ng/mL
CNC(=O)c1c(C)oc2cc(Oc3ncnc4cc(OC)c(OC)cc34)ccc12 — Cmax (human, plasma; oral, 5 mg, fed, high-fat meal): 114 ng/mL
Cc1nc(-c2ccc(OCC(C)C)c(C#N)c2)sc1C(=O)O — Cmax (human, plasma; oral, 80 mg daily, day 7, geometric mean, added: verinurad 9 mg): 2460 ng/mL
CCN1CCN(c2ccc(Nc3cc(N(C)C(=O)Nc4c(Cl)c(OC)cc(OC)c4Cl)ncn3)cc2)CC1 — Cmax (human patients, plasma; oral, 25 mg once daily, day 1, dose level -2, mean, added: imatinib 400 mg once daily): 12.6 ng/mL
Cn1ncc(Cl)c1-c1cc(C(=O)N[C@H](CN)Cc2ccc(F)c(F)c2)oc1Cl — Cmax (human patients, plasma; oral, 10 mg once daily, day 8, repeat dose): 24.3 to 32.7 ng/mL
COc1ccnc(C[S+]([O-])c2nc3ccc(OC(F)F)cc3[nH]2)c1OC (stereo not drawn) — Cmax (human, CYP2C19 poor metabolizers, plasma; oral, 40 mg/day, day 5): 12000 ± 1800 ng/mL
C=C(C)[C@@H]1CC[C@]2(NCCN3CCS(=O)(=O)CC3)CC[C@]3(C)[C@H](CC[C@@H]4[C@@]5(C)CC=C(C6=CC[C@@](CF)(C(=O)O)CC6)C(C)(C)[C@@H]5CC[C@]43C)[C@@H]12 — Cmax (healthy human volunteers, plasma; oral, 200 mg, tablet, moderate-fat state, mean): 1510 ng/mL
Cc1cccc(C)c1N(CC(=O)Nc1ccc(-c2ncon2)cc1)C(=O)C1CCS(=O)(=O)CC1 — Cmax (human male, plasma; oral, 400 mg single dose, geometric mean, alone): 1850 ng/mL
COc1cc(F)c(F)c(Nc2ccc(I)cc2F)c1NS(=O)(=O)C1(C[C@H](O)CO)CC1 — Cmax (human patients, plasma; oral, 50 mg twice daily, cycle 1 day 15, added: copanlisib 0.4 mg/kg intravenous weekly): 1080 ng/mL
O=C(Cc1cccc(OC(F)(F)F)c1)Nc1ccc(CCCCc2nnc(NC(=O)Cc3ccccn3)s2)nn1 — Cmax (human patients, plasma; oral, 600 mg three times daily fasted, cycle 1 day 15 steady state): 1140 ng/mL
O=C(CCCCCCC(=O)Nc1ccccc1)NO — Cmax (human, serum; oral, 300 mg, mean): 661 nM
C=CC[C@@H]1/C=C(\C)C[C@H](C)C[C@H](OC)[C@H]2O[C@@](O)(C(=O)C(=O)N3CCCC[C@H]3C(=O)O[C@H](/C(C)=C/[C@@H]3CC[C@@H](O)[C@H](OC)C3)[C@H](C)[C@@H](O)CC1=O)[C@H](C)C[C@@H]2OC — Cmax (healthy human subjects, whole blood; oral, 5 mg single dose, arithmetic mean, added: isavuconazole 200 mg once daily after loading): 37.1 ng/mL
CNC(=O)c1ccc(-c2cnc3ncc(Cc4ccc5ncccc5c4)n3n2)cc1F — Cmax (healthy human subjects, plasma; oral, 400 mg, adjusted geometric mean, alone): 3070 ng/mL
CCOCCn1c(C2CCN(CCc3ccc(C(C)(C)C(=O)O)cc3)CC2)nc2ccccc21 — Cmax (human, moderate renal insufficiency, plasma; oral, 20 mg, geometric LS mean): 270 ng/mL
COCCCCn1c(C(=O)N(CC(C)C)[C@@H]2CNC[C@H](C(=O)N3CCOCC3)C2)nc2ccccc21 — Cmax (human, elderly, plasma; oral, 80 mg once daily, day 1, mean): 959 ng/mL
CO[C@H]1C[C@@H]2CC[C@@H](C)[C@@](O)(O2)C(=O)C(=O)N2CCCC[C@H]2C(=O)O[C@H]([C@H](C)C[C@@H]2CC[C@@H](OC(=O)C(C)(CO)CO)[C@H](OC)C2)CC(=O)[C@H](C)/C=C(\C)[C@@H](O)[C@@H](OC)C(=O)[C@H](C)C[C@H](C)/C=C/C=C/C=C/1C — Cmax (human, whole blood; intravenous, 35 mg/m^2 weekly, cycle 1, median, added: valproic acid): 790 ng/mL
CNc1nc(Nc2ccc(-n3cnc(C)n3)c(OC)c2)nc2c1CC[C@H]2c1ccc(F)cc1 — Cmax (human; oral, 100 mg once daily, day 14, multiple ascending dose, geometric mean): 539 ng/mL
CCOc1cc([C@@H](CS(C)(=O)=O)N2C(=O)c3cccc(NC(C)=O)c3C2=O)ccc1OC — Cmax (healthy human, male, plasma; oral, 20 mg single dose, without ketoconazole): 236 ng/mL
C=CC(=O)Nc1cc(Nc2ncc(C(=O)OC(C)C)c(-c3cn(C)c4ccccc34)n2)c(OC)cc1N(C)CCN(C)C — Cmax (human, fasted; oral, 120 mg single dose, arithmetic mean): 27.6 ng/mL
COc1cc2c(cc1OC)[C@H]1CC(=O)[C@H](CC(C)C)CN1CC2 (racemic) — Cmax (human CYP2D6 extensive metabolizers, plasma; oral, 25 mg, fasted, geometric mean): 0.29 ng/mL
CN(CCOc1ccc(CC2SC(=O)NC2=O)cc1)c1ccccn1 (stereo not drawn) — Cmax (human, both sexes, plasma; oral, 4 mg, day 3, geometric mean, added: SCY-078 750 mg): 235 ng/mL
COc1cc(Nc2ncc3c(n2)-c2ccc(Cl)cc2C(c2c(F)cccc2OC)=NC3)ccc1C(=O)O — Cmax (human patients, plasma; oral, 40 mg single dose, single agent run-in): 706 ± 268 ng/mL
N#Cc1ccnc(N2C(=O)CC[C@H]2C(=O)N(c2cncc(F)c2)[C@H](C(=O)NC2CC(F)(F)C2)c2ccccc2Cl)c1 — Cmax (human patients, plasma; oral, 500 mg once daily, induction cycle 1 day 1, mean, added: chemotherapy): 5000 ng/mL
CON(C)C(=O)N1N=C(c2cc(F)ccc2F)S[C@@]1(CCCN)c1ccccc1 — Cmax (human; intravenous, 1.5 mg/m^2, cycle 1 day 3, geometric mean): 79.8 ng/mL
CCCCC1(CCCC)CN(c2ccccc2)c2cc(SC)c(OCC(=O)N[C@@H](C(=O)NCC(=O)O)c3ccccc3)cc2S(=O)(=O)C1 — Cmax (LC-MS/MS; human, plasma; oral, 5 mg, single dose, fasted): 0.583 ng/mL
O=C(c1cccnc1-c1ccncc1)N1CCC(O)(Cc2ccccc2)CC1 — Cmax (healthy human, plasma; oral, 300 mg once daily, day 14, arithmetic mean): 3100 ng/mL
C[C@@H]1COC(Nc2ccc3ncnc(Nc4ccc(OCc5nccs5)c(Cl)c4)c3c2)=N1 — Cmax (human patients, plasma; oral, 300 mg intermittent, cycle 1): 2740 ± 1440 ng/mL
CCCCCCCCCCCCCCC[C@H](O)[C@@H](N)CO — Cmax (human, phase I, plasma; intravenous, 60 mg/m^2, day 1, monotherapy): 1700 nM
C=CCNC1=C2C[C@@H](C)C[C@H](OC)[C@H](O)[C@@H](C)/C=C(\C)[C@H](OC(N)=O)[C@@H](OC)/C=C\C=C(/C)C(=O)NC(=CC1=O)C2=O — Cmax (human, plasma; intravenous infusion, 300 mg/m^2, day 1, 3 h infusion): 6000 nM

For quick reference, copied from above:
COc1cc(F)c(F)c(Nc2ccc(I)cc2F)c1NS(=O)(=O)C1(C[C@H](O)CO)CC1 — Cmax (human patients, plasma; oral, 50 mg twice daily, cycle 1 day 15, added: copanlisib 0.4 mg/kg intravenous weekly): 1080 ng/mL
O=C(Cc1cccc(OC(F)(F)F)c1)Nc1ccc(CCCCc2nnc(NC(=O)Cc3ccccn3)s2)nn1 — Cmax (human patients, plasma; oral, 600 mg three times daily fasted, cycle 1 day 15 steady state): 1140 ng/mL
O=C(CCCCCCC(=O)Nc1ccccc1)NO — Cmax (human, serum; oral, 300 mg, mean): 661 nM
C=CC[C@@H]1/C=C(\C)C[C@H](C)C[C@H](OC)[C@H]2O[C@@](O)(C(=O)C(=O)N3CCCC[C@H]3C(=O)O[C@H](/C(C)=C/[C@@H]3CC[C@@H](O)[C@H](OC)C3)[C@H](C)[C@@H](O)CC1=O)[C@H](C)C[C@@H]2OC — Cmax (healthy human subjects, whole blood; oral, 5 mg single dose, arithmetic mean, added: isavuconazole 200 mg once daily after loading): 37.1 ng/mL
